Assay results gathered from unrelated publications.
Each line is one published result; not all experiments were run side by side. Values joined by “and” are separate records of one study, mostly repeats; a detail may differ. ± gives the spread as reported.

Structure (SMILES) | test | test system | conditions | how to read | quantity | result
CCN1CCN(Cc2ccc(NC(=O)c3ccc(C)c(NC(=O)c4cncc(-c5cccs5)c4)c3)cc2C(F)(F)F)CC1 | LC-MS/MS | C57BL/6 mouse, plasma | intraperitoneal, 30 mg/kg single dose, 2 h | – | plasma concentration | 0.426 µg/mL and 0.454 µg/mL and 0.607 µg/mL
CC(C)(C)C[C@@H]1COC[C@H](c2ccc(C#N)cc2)N1 | shake-flask, LC-HRMS | aqueous buffer | 16 h, pH 6.8 | – | solubility | > 750 µM
COc1cc(Nc2ncc3c(n2)-c2ccc(Cl)cc2C(c2c(F)cccc2OC)=NC3)ccc1C(=O)O | item: Hypercalcemia, all grades | cancer patients, phase 1/2 | oral, dose not given, together with: pembrolizumab | – | patients with adverse event | 21%
COc1cc2nccc(Oc3ccc(NC(=O)c4cc5c(n(-c6ccccc6)c4=O)CCCC5=O)nc3)c2cc1OC | – | patients with relapsed/refractory AML | oral, 6 mg once daily | – | drug-related TEAEs leading to interruption | 0%
O=c1[nH]c(=O)n([C@H]2C[C@H](O)[C@@H](CO)O2)cc1CCCC[18F] | – | male CD-1 nu/nu mice, RG2 tumour, muscle | intravenous, dose not given, 2 h | – | biodistribution | 0.35 ± 0.13 %ID/g
O=C(Nc1nc2cccc(-c3ccc(CN4CCS(=O)(=O)CC4)cc3)n2n1)C1CC1 | item: lipase increased | human rheumatoid arthritis patients | oral, 30 mg once daily, 4 weeks, regardless of relatedness | – | treatment-emergent adverse events | 0%
C=CC(=O)Nc1cc(Nc2nccc(-c3cn(C4CC4)c4ccccc34)n2)c(OC)cc1N(C)CCN(C)C | – | BALB/c nude mouse, LU0387 xenograft, blood | oral, 40 mg/kg | – | MPV | 7.22 ± 0.102 fL
COc1ccc([C@@H](O)c2cc(-c3ncnc4cc(N5CCOCC5)ccc34)c(F)cc2Cl)nn1 | – | locally advanced rectal cancer | all dose levels overall, together with: capecitabine and radiotherapy | – | TEAE, rectal haemorrhage | 26%
C=CC(=O)Nc1cc(Nc2nccc(-c3cn(C)c4ccccc34)n2)c(OC)cc1N(C)CCN(C)C | storage stability | human dried blood spots | 24 h, on ice, LLOQ level | – | recovery | 61.4%
CN1CCC[C@H](CN2c3ccccc3Sc3ccccc32)C1.Cl | – | ICR mouse female fasted, liver | oral, 16 mg/kg | – | AUC(0-t) | 33500 ng·h/mL
Cc1cccc(NS(=O)(=O)c2cc(C(=O)Nc3ccccc3C(=O)N3CCOCC3)ccc2Cl)c1 | – | aqueous buffer | pH 7.4 | – | solubility | < 3.67 µg/mL
Cn1cc([C@H]2COC[C@@H](c3ccc(-c4ccccn4)cc3)N2)cn1 | shake-flask, LC-HRMS | aqueous buffer | 16 h, pH 6.8 | – | solubility | > 750 µM
C[C@@H](c1ncncc1F)[C@](O)(Cn1cncn1)c1ccc(F)cc1F | item: Headache | human | oral, 200 mg | – | drug-related TEAE incidence | 0%
CCn1c(=O)c(-c2cc(NC(=O)Nc3ccccc3)c(F)cc2Br)cc2cnc(NC)cc21 | item: accidental overdose | healthy human, matched to mild hepatic impairment | oral, 50 mg single dose | – | participants with grade ≥ 3 TEAE | 0%
Cc1ccc([C@H]2N[C@@H](c3ccc(-c4ccccn4)cc3)CO[C@@H]2C)cc1 | shake-flask, LC-HRMS | aqueous buffer | 16 h, pH 6.8 | – | solubility | < 4 µM
CS(=O)(=O)N(CC(=O)Nc1ccccc1C(=O)N1CCOCC1)c1ccc(Cl)cc1 | – | aqueous buffer | pH 7.4 | – | solubility | < 3.23 µg/mL
COc1ccc(CNc2nc(-c3ccc(C(=O)O)cc3)nc3c2c2ccccc2n3C)cc1Cl | – | NSG mice | dose not given, day 3 | – | body weight | 23.6 g and 20.3 g and 23.9 g and 25.2 g
C[C@H]1CN(C(=O)CC#N)[C@]12CCN(c1ncnc3[nH]ccc13)C2 | – | human | oral, dose not given, all compound groups | – | participants withdrawn due to AEs | 0%
C[C@H]1OC[C@H](c2cccnc2)N[C@@H]1c1ccc2ccccc2c1 | shake-flask, LC-HRMS | aqueous buffer | 16 h, pH 6.8 | – | solubility | < 4 µM
O=C(O)CCC(=O)O.[2H]C([2H])([2H])Oc1cc(C)c2[nH]ccc2c1CN1CC[C@@H](C2CC2)C[C@H]1c1ccc(C(=O)O)cc1 | – | healthy Chinese subjects | oral, 100 mg, single ascending dose | – | subjects with elevated uric acid | 0%
CCO[C@H]1CCN(Cc2c(OC)cc(C)c3[nH]ccc23)[C@H](c2ccc(C(=O)O)cc2)C1 | – | human healthy controls, plasma | oral, 200 mg single dose, mean | – | unbound AUClast | 3920 ng·h/mL
CNCCOC12CC3(C)CC(C)(CC(Cn4ncc(-c5ccc(N6CCc7cccc(C(=O)Nc8nc9ccccc9s8)c7C6)nc5C(=O)O)c4C)(C3)C1)C2 | – | beagle dog, male, anaesthetised | intravenous bolus, 0.03 mg/kg, 30 min | relative to: baseline | QRS duration change | 2 ms
O=C(Nc1ccc(OC(F)(F)Cl)cc1)c1cnc(N2CC[C@@H](O)C2)c(-c2ccn[nH]2)c1 | item: ALT increase, grade ≥2 | human patients, dose-finding study | oral, sample A of sample B patients | – | patients with event | 7.1%
[18F]c1ccc(-c2ccc3c(c2)[nH]c2ccncc23)cn1 | ex vivo biodistribution | B6SJL mouse, normal, cerebellum | intravenous, 30 min | – | SUV | 0.367 ± 0.117

Structure (SMILES) | test | test system | conditions | how to read | quantity | result
Cc1ccc(Sc2ccccc2N2CCNCC2)c(C)c1 | item: ALT increased | healthy adult men | oral, 5 mg daily, 12 days | – | participants with TEAE | 16.7%
CNc1cc[n+](CCNC(=O)c2ccn3c(-c4c(C)noc4C)cnc3c2)cc1.[Cl-] | – | aqueous buffer | initial, pH 10 | – | total organic impurities | 0 % peak area
CCCC1CCC(C2CCC(c3cc(F)c(F)c(F)c3)CC2)CC1 (centres unmarked) | – | rat, placenta | 10 ng/mL in perfusate, low dose, mixture of 21 LCMs | – | placental accumulation | 15.4 ± 17.8 ng/g
CCOC(=O)N1C[C@@H](c2ccc(-c3ccccc3)cc2)N[C@@H](C(CC)CC)C1 | shake-flask, LC-HRMS | aqueous buffer | 16 h, pH 6.8 | – | solubility | < 4 µM
CN[C@@H](C)C(=O)N[C@H]1CN(C(=O)CC(C)C)CC[C@H]2CC[C@@H](C(=O)NC(c3ccccc3)c3ccccc3)N2C1=O | unchanged drug recovered | SCID mice, MDA-MB-231 xenograft, urine | oral | – | renal clearance | 0.128 mL/min
Cc1cc([C@H]2C[C@H]3[C@@H](CF)SC(N)=N[C@@]3(c3ccc(F)cc3F)CO2)on1 | – | male 129/SVE mouse, CSF | subcutaneous, 100 mg/kg, 1 h | – | CSF concentration | 1570 nM
CCCCC1=NC2(CCCC2)C(=O)N1Cc1ccc(-c2ccccc2S(=O)(=O)Nc2noc(C)c2C)c(COCC)c1 | – | healthy adult volunteers, plasma | oral, 1600 mg, single dose, fed, crushed tablet | – | Cmax | 30800 ng/mL
O=C(NO)[C@H]1CSC(c2ccc(OC(F)(F)F)c(Cl)c2)=N1 | – | aqueous buffer | pH 7.4 | – | solubility | < 3.65 µg/mL
CCCCC[C@H](O)CC[C@@H]1[C@H]2Cc3cccc(OCC(=O)O)c3C[C@H]2C[C@H]1O | LC-MS/MS | Japanese PAH patients under 56.7 kg, plasma | inhaled, 54 µg | – | geometric mean AUC(0-last) | 0.85 ng·h/mL
FC(F)(F)c1ccc(CNc2ccc(Cc3c[nH]c4ncc(Cl)cc34)cn2)cn1 | item: Rash | patients with advanced solid tumours, non-TGCT cohort | oral, 1000 mg/day, any grade | – | treatment-related adverse events | 8%
N#Cc1ccc2c(c1)[C@H]1CCCN(C(=O)c3ccc4[nH]cnc4c3)[C@H]1C2 | – | human females | 360 mg, end of trial | – | total testosterone | 0.8 nmol/L
C[C@H](CCC(=O)O[C@@H]1O[C@H](C(=O)O)[C@@H](O)[C@H](O)[C@H]1O)[C@H]1CC[C@H]2[C@@H]3[C@H](O)C[C@@H]4C[C@H](O)CC[C@]4(C)[C@H]3CC[C@]12C | – | human, plasma | endogenous baseline diurnal | – | Cmin | 9.86 ± 1.6 nM
C=CC(=O)NC1CCN(c2ncc3ncnc(Nc4ccc(Oc5ccc6c(c5)ncn6C)c(C)c4)c3n2)CC1 | item: total radioactivity | healthy male volunteers, plasma | oral solution, 60 mg, together with: [14C]-labelled compound | – | AUC0–24 | 13.3 µM·h
Cc1ccc([C@@H]2O[C@H](CO)[C@@H](O)[C@H](O)[C@H]2O)cc1Cc1ccc(-c2ccc(F)cc2)s1 | – | Japanese type 2 diabetes patients | 200 mg, day 16, 24 h urine collection | relative to: baseline | urinary chloride excretion change | 8.81 mEq
CCOc1c([C@H](C)n2nc(C)c3c(N)ncnc32)cc(Cl)c(F)c1[C@@H]1CNC(=O)C1 | – | human patients, plasma | oral, 15 mg once daily, cycle 1 day 15, monotherapy | – | Cmin | 156 ± 99.8 nM
CC(C)(C(=O)N1CCOc2c(C#N)cncc2C1)C(F)F | item: abnormal urine odour | human, both sexes | oral, 20 mg twice daily, 14 days, multiple ascending dose | – | subjects with TEAE | 0%
Cc1cc(Nc2ncnc3ccc(NC4=NC(C)(C)CO4)cc23)ccc1Oc1ccn2ncnc2c1 | item: Arthralgia | healthy volunteers | oral, dose not given, grade 1-2 | – | drug-related adverse events | 3.6%
O=c1[nH]c(=O)n([C@@H]2O[C@H](CO)[C@@H](O)[C@@H]2F)cc1CCCCC[18F] | – | nude mice, RG2 tumour, brain | intravenous, dose not given, 2 h | – | biodistribution | 0.02 ± 0.01 %ID/g
Cc1ncnc2c1ccn2[C@@H]1C[C@H](Oc2cc(C(F)F)c(F)c3c2CNCC3)[C@@H](O)[C@H]1O | – | human | 4 mg twice daily, multiple dose, geometric mean | – | Cmin | 26.2 ng/mL
CCCc1ccc(-c2ccc(-c3cc(F)c(F)c(F)c3)c(F)c2)cc1 | – | rat, placenta | 10 ng/mL in perfusate, low dose, mixture of 21 LCMs | – | placental accumulation | 1.47 ± 1.76 ng/g
Cc1c(C(=O)O)ccc2c3n(nc12)[C@@H]1[C@H](C3)N(CC2CC2)[C@@]2(C(=O)Nc3cc(Cl)ccc32)[C@H]1c1cccc(Cl)c1F | – | female BALB/c nude mice, SJSA-1 xenograft, plasma | oral, 2 mg/kg once daily | – | half-life | 17.4 h and 9 h and 36.9 h and 10.8 h and 14.1 h
Cc1ccc([C@H]2N[C@H](c3ccc(C(C)(C)C)cc3)CO[C@@H]2C)cn1 | shake-flask, LC-HRMS | aqueous buffer | 16 h, pH 6.8 | – | solubility | < 4 µM
Cc1c(-c2ccc(N3CCc4cccc(C(=O)Nc5nc6ccccc6s5)c4C3)nc2C(=O)O)cnn1CC12CC3(C)CC(C)(C1)CC(OCCNCC[C@H](O)CO)(C3)C2 | – | beagle dog, male, anaesthetised | intravenous infusion, 0.3 mg/kg/min, 45 min | relative to: vehicle | QRS duration change | 0 ms
